Measured values of several laboratories.
Numbered parts are unrelated; each lists some results of a single study.

Sample 1 — method: universal PBM; form: double-stranded DNA, one strand shown; medium: in vitro; tested at: not given; reading: higher = stronger binding
Target: Sal-like protein 4, full length isoform B (SALL4, Homo sapiens, UniProt Q9UJQ4-2, residues 1-616)
Notes: 8-mer, flanks averaged, mean of replicates
Target sequence (chain): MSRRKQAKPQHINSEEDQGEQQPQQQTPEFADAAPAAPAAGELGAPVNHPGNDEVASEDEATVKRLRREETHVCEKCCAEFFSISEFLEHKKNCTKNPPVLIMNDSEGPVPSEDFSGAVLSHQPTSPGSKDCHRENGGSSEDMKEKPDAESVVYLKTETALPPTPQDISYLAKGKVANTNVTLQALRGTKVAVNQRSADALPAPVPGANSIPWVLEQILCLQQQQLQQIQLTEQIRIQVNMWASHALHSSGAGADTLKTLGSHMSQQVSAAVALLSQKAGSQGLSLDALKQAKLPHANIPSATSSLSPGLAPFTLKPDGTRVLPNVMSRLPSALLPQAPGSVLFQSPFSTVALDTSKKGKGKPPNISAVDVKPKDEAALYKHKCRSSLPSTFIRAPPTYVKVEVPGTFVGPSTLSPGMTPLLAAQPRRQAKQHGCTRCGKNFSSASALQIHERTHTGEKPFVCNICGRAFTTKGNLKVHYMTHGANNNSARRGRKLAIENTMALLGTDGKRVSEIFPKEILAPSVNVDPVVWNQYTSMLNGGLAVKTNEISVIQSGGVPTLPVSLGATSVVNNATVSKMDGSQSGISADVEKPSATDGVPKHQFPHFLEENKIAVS
Strand | E-score
CGAGCTCG | -0.25
ATTTTATG | 0.264
CTCCTGTA | -0.0827
ATCGCTCA | -0.142
CTGCGACA | -0.15
ATACGCTC | 0.157
CAGACCTG | -0.189
AGAGCGAG | -0.139
ACACATTG | 0.1
CCGAGCAA | -0.293
AAGAGCGC | -0.129
GAAACCTC | -0.194
AGTGCTTG | 0.0816
CCTCGTCA | 0.0266
CTGAATCC | -0.0469
CGATATCA | 0.148
ATCAACGA | -0.0417
CCCGCTCG | -0.237
ATCAATGA | 0.236
TATGGCGA | -0.0734
CCGGAGAC | -0.212
AGCCCATG | -0.148
CTTGAGAA | 0.13
TGATGAAA | 0.197
AAGTTCAC | -0.124

Sample 2 — method: RNA Bind-n-Seq; form: RNA; medium: in vitro; tested at: 200 nM; notes: whole 134-nt RNA, ends assumed; added: 150 mM KCl; relative to: input library; reading: higher = stronger binding
Target: Fragile X messenger ribonucleoprotein 1, C-terminal low-complexity region (Fmr1, Mus musculus, UniProt P35922)
Shared flanks, not repeated: GGGAGUUCUACAGUCCGACGAUC … UGGAAUUCUCGGGUGUCAAGG
Strand | log2 enrichment
CGCUAAAGAGGAGCACGGUGGACUGAUGUGAGCUUCUCUUCCUGCCCCUUCCUCCCUGAUGUCCACUCCCUUCACCUUCCUCACGCCCGU | 0.595
ACCAUGCAGGUGGGCAUCUUUGGGAAGUGGGGCAAGGGGGAGAUAGGGAGGGGGGUAACACUUUGGGAACAGGUGGUCCCAGGUCGUUUC | 0.893
CAAAAUACCAAGGGAUUUAUAUGAGGAUGAGUUGGUGCCCCUUUUUGAGAAGGCCGGACCCAUUUGGGAUCUACGUCUUAUGAUGGAUCC | -0.525
UCAAGUCCUGUGCUACACAUCGUAUGUACCGAAUCGGGCCGGGCCGGGGCCGGGGAAAGUAUUAUGUUACGCCGUUCGGAUCUGCACUUC | 0.256
UGGGAGCUGGAUUUUGUUUAUUUUUUUAGCUCAUUUCCAGGGGUGGGAAUUUUUUUUUAAUAUGUGUCAUGAAUAAAGUUGUUUUUGAAA | -0.641
CUCAAGUCCUGUGCUACACAUCGUAUGUACCGAAUCGGAAAGGAAAGGAAAGGGAAAGUAUUAUGUUACGCCGUUCGGAUCUGCACUUCC | -0.378
CUCAAGUCCUGUGCUACACAUCGUAUGUACCGAAUCGGUGGAAAAAAAGGAGGAAAGUAUUAUGUUACGCCGUUCGGAUCUGCACUUCCA | -0.0961
UUGUUUAGCAAUCAAGGAGACCGCGAAGGCGUACAUUCCCGGGUGUUGCUUCCAGGAGAAACCCUGAACGGAGAGCUCGUCCUCUUACCA | -0.594
UGGCCCUGGUGGUAUGCGGGGAGGAAGAGGUGGCCUCAUGGAUCGUGGUGGUCCCGGUGGAAUGUUCAGAGGUGGCCGUGGUGGAGACAG | -0.0115
UGGCCCUGGUGGCAUGCGGGGAGGAAGAGGUGGCCUCAUGGAUCGUGGUGGUCCCGGUGGAAUGUUCAGAGGCGGCCGUGGUGGAGACAG | -0.173

Sample 3 — method: protein binding microarray; form: double-stranded DNA, one strand shown; medium: in vitro; tested at: not given; relative to: not given; reading: higher = stronger binding
Target: Histone acetyltransferase KAT6A, winged helix 1, GST fusion (KAT6A, Homo sapiens, UniProt Q92794, residues 1-85)
Notes: 8-mer, flanks averaged, mean of 2 arrays, mostly near background
Residues (chain): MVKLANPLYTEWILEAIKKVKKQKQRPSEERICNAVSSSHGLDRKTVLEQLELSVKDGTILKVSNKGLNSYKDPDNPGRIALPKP
Strand | E-score
AGATATGA | -0.167
AATTTGAT | -0.163
AGGCGGCA | 0.172
ACTAACGG | 0.246
ACGCCGCA | 0.311
AAAACCCC | -0.0872
AAACAGTG | -0.0788
CACATAGA | -0.231
CCAATGAA | -0.227
ATGGATGG | -0.0773
GAGATGCC | 0.04
AGCTGCAG | -0.181
GACAAGTC | -0.0248
GGCATAGA | 0.0461
AAAAATCT | -0.267
GATCTGTA | -0.128
GCGAAAGA | -0.0642
ATCCTATG | -0.175
GACGTATA | 0.0217
GGGGGTTA | -0.0357
CGTTCAAC | 0.0823
ATCATGGG | -0.214

Sample 4 — method: RNA Bind-n-Seq; form: RNA; medium: in vitro; tested at: 365 nM; relative to: no-protein control; reading: higher = stronger binding
Target: RNA binding protein fox-1 homolog 2, RRM domain, GST-SBP tag (RBFOX2, Homo sapiens, UniProt O43251-10, residues 100-194)
Notes: natural RNA segment, single round, ends assumed
Shared flanks, not repeated: GGGAGUUCUACAGUCCGACGAUC … UGGAAUUCUCGGGUGCCAA
Construct (chain): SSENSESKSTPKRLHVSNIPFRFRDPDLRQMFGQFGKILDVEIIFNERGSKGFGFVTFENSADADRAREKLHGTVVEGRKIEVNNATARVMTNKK
Strand | RBNS enrichment (R)
CUCUGCCAAAUGGAAAAUGACCAAAUUUAAGAGGGUGGGACAGUCCCCUGCUCCUCUCCCAGAGGGCACUGCUUGGAAAUUGUGUUUUCCCCAUUUAUGGUGCUCUGUAU | 0.385
GAUUCAUUUUAUCGAGAUGCCAAGAUGAACACAAUGUGAAUAUCAUUUCCAUUUCUAAGCAGUUGAAUGACACAGUCAGAUUCUUUGGUGUAUGCUUUGUUCUUUCCAUC | 0.611
AAAAAAAAGCUGUAACCUUAUCAUUUCUGAGUAGACCAUUAAGAGAAAUGCACACCUGUCAGCCCAGGACCAGCUUUGGUGGCUAAAGGGAAUAUUUUAACUCGCAAGGU | 0.582
UCUGAAUUUUUUUUCUGAAUUUUUUUUUAACAUCUCUUUCUCAUUAGAGAUCUGAAAACUCAUUAGAGAUGUUGAGUCUUAUCAAAUAAAAAGCAUGAGACAUCAUGGCC | 0.653
UUGCUGUAGCUGAGACUUGUCUAGAGUCCUUUGUUUUGCACUUUUGACCCACCCCUUCCUGGAUCACUCCUUUGCACUCCACUCCCCUCGUUCUGUCACUUUGAACGAAG | 0.601
UCAUGUAAUGGUCUUUGGCAGGAGAGAGCACUGAGUCAUUGCUGGAGUUCAGUUCAACAGAGCUGCAGCUUGGGAAGCCCUGUAAGCCCACAGCUUCCUCUCUUAUAUUA | 0.345
AUAUUAUAUUUUUUCACUAUAGGUACAUGUAACAGUAAAACGUGUAACAGCAAAGUAUAUAUUUGAUGUUUUCUGUCUUUCAUGAUAUUGUGCUAACAAGUUGUGCUAAU | 0.335
UUCUUUCUCUAUGUUCCAAAACCAUUCCAUUUCAAAGCACUUUUGGUCAGCUAGCUGGAGGCAGUGUUGCUGGUGUGUGUUGGGGGGAGGGGUUCUAAUGGAAUGGAUGG | 0.425
UUCCAUUACAUCUGAGGAUUCCAGAGUCCUCUGUUCAUCCCUGGGAUAGAGUGAGCCCUCUUGCGUCUUCCAGGGUAGCUCAGGUUGGCCCAGUUUGGGCCAGUCCAUUU | 0.168
GAACAGGAAGUUUGCUCUAAGAUGAGACUGUUGUUGUCUGGACUUCCUCUAGAAAUCCCAGCAGAAUCUGUUGCCUCCCCCAACCCCUAACUUUGCCACUUCAAGCCUCA | 1.65
UGGAAAAGGCACAUGCCGAAGAUACUCAAGAGCUCCCAAGAUUUGCUUGAGGCUAGCCCAGUGAAAAAAACCAGAGACUCAUGUUUCCAGGGGUCAGUCUGUCAGGCAGG | 2.79
AUUAUGGGGAAUUGUACCAAAACAAGAACCAUAUAAAUGAUGCCUAGGGACAAGAAAGAGGAACAAUUCUAUAGCGCACAAUAAAGGAAACCUAAGAAUGGGAGUUACAA | 0.51

For quick reference, copied from above (sample 4):
Strand | RBNS enrichment (R)
UUGCUGUAGCUGAGACUUGUCUAGAGUCCUUUGUUUUGCACUUUUGACCCACCCCUUCCUGGAUCACUCCUUUGCACUCCACUCCCCUCGUUCUGUCACUUUGAACGAAG | 0.601
UCUGAAUUUUUUUUCUGAAUUUUUUUUUAACAUCUCUUUCUCAUUAGAGAUCUGAAAACUCAUUAGAGAUGUUGAGUCUUAUCAAAUAAAAAGCAUGAGACAUCAUGGCC | 0.653
CUCUGCCAAAUGGAAAAUGACCAAAUUUAAGAGGGUGGGACAGUCCCCUGCUCCUCUCCCAGAGGGCACUGCUUGGAAAUUGUGUUUUCCCCAUUUAUGGUGCUCUGUAU | 0.385
UUCCAUUACAUCUGAGGAUUCCAGAGUCCUCUGUUCAUCCCUGGGAUAGAGUGAGCCCUCUUGCGUCUUCCAGGGUAGCUCAGGUUGGCCCAGUUUGGGCCAGUCCAUUU | 0.168
GAUUCAUUUUAUCGAGAUGCCAAGAUGAACACAAUGUGAAUAUCAUUUCCAUUUCUAAGCAGUUGAAUGACACAGUCAGAUUCUUUGGUGUAUGCUUUGUUCUUUCCAUC | 0.611
AUUAUGGGGAAUUGUACCAAAACAAGAACCAUAUAAAUGAUGCCUAGGGACAAGAAAGAGGAACAAUUCUAUAGCGCACAAUAAAGGAAACCUAAGAAUGGGAGUUACAA | 0.51
GAACAGGAAGUUUGCUCUAAGAUGAGACUGUUGUUGUCUGGACUUCCUCUAGAAAUCCCAGCAGAAUCUGUUGCCUCCCCCAACCCCUAACUUUGCCACUUCAAGCCUCA | 1.65
AAAAAAAAGCUGUAACCUUAUCAUUUCUGAGUAGACCAUUAAGAGAAAUGCACACCUGUCAGCCCAGGACCAGCUUUGGUGGCUAAAGGGAAUAUUUUAACUCGCAAGGU | 0.582
UGGAAAAGGCACAUGCCGAAGAUACUCAAGAGCUCCCAAGAUUUGCUUGAGGCUAGCCCAGUGAAAAAAACCAGAGACUCAUGUUUCCAGGGGUCAGUCUGUCAGGCAGG | 2.79
AUAUUAUAUUUUUUCACUAUAGGUACAUGUAACAGUAAAACGUGUAACAGCAAAGUAUAUAUUUGAUGUUUUCUGUCUUUCAUGAUAUUGUGCUAACAAGUUGUGCUAAU | 0.335
UCAUGUAAUGGUCUUUGGCAGGAGAGAGCACUGAGUCAUUGCUGGAGUUCAGUUCAACAGAGCUGCAGCUUGGGAAGCCCUGUAAGCCCACAGCUUCCUCUCUUAUAUUA | 0.345
UUCUUUCUCUAUGUUCCAAAACCAUUCCAUUUCAAAGCACUUUUGGUCAGCUAGCUGGAGGCAGUGUUGCUGGUGUGUGUUGGGGGGAGGGGUUCUAAUGGAAUGGAUGG | 0.425
